Experimental data pooled from the literature.
Each numbered part is a random draw from the data of one study; scales do not carry over between parts. Positions count from the first letter of the parent shown.
Chain of UniProt P35372 (whole entry, looked up): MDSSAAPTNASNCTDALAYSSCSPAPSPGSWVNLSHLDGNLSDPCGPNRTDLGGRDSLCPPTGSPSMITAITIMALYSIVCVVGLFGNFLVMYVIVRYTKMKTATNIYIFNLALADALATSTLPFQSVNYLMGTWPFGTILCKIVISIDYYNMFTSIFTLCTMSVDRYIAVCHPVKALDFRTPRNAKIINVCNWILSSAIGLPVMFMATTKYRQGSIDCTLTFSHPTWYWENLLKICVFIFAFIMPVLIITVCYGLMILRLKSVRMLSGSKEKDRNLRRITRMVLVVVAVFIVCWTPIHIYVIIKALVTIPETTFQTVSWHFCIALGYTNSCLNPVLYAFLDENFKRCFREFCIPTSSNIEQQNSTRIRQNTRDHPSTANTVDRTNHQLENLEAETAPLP

Study 1
Target: UDP-N-acetylglucosamine--peptide N-acetylglucosaminyltransferase 110 kDa subunit (OGT, Homo sapiens, UniProt O15294)
Observed: binding
Method: phage display NGS
Form: peptide
Concentration: concentration not given
Added: OGT 1 µg
Relative to: input library
Target sequence (O15294 1-1046): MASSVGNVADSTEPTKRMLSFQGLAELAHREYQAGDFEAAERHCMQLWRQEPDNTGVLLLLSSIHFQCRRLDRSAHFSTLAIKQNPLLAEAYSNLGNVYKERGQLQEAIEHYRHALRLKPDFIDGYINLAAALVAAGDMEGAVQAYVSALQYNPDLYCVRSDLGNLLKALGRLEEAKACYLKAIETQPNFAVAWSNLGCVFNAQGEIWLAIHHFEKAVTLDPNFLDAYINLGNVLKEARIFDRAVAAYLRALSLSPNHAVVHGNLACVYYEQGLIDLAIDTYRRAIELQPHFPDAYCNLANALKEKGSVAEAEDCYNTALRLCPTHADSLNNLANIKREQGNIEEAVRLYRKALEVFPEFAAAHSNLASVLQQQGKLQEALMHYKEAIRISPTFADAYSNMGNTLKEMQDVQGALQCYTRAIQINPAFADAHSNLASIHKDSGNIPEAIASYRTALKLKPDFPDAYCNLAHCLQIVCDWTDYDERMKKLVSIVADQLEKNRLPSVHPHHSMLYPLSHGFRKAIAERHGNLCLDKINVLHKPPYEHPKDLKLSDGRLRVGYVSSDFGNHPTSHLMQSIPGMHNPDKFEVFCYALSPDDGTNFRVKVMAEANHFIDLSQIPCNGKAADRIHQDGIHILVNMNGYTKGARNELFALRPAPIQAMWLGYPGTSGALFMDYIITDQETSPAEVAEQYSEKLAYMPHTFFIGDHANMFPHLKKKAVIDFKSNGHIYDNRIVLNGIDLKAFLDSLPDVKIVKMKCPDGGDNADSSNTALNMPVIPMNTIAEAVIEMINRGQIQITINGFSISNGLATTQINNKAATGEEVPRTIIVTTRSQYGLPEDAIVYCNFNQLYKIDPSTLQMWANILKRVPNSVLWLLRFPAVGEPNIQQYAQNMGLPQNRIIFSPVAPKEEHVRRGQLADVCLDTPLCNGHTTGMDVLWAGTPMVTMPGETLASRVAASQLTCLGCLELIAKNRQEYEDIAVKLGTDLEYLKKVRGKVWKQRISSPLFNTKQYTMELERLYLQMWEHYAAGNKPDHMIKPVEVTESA
For `TAPFYPPAYEIQVFK`, “enrichment fold change” read 1.25.
`TAPFYPPAYAIQVFK`: “enrichment fold change” 1.57.
`TAPFYPPAYFIQVFK` — result for “enrichment fold change”: 3.26.

Study 2
Target: vanadate, free oxyanion
Method: microfluidic competitive inhibition
Medium: in vitro, cell-free expressed
Concentration: not given
Notes: derived from inhibition constants, unchanged parent 676 nM
Reading: lower = stronger binding
Starting sequence: PafA, mature enzyme, eGFP fusion (Elizabethkingia meningoseptica, UniProt Q9KJX5); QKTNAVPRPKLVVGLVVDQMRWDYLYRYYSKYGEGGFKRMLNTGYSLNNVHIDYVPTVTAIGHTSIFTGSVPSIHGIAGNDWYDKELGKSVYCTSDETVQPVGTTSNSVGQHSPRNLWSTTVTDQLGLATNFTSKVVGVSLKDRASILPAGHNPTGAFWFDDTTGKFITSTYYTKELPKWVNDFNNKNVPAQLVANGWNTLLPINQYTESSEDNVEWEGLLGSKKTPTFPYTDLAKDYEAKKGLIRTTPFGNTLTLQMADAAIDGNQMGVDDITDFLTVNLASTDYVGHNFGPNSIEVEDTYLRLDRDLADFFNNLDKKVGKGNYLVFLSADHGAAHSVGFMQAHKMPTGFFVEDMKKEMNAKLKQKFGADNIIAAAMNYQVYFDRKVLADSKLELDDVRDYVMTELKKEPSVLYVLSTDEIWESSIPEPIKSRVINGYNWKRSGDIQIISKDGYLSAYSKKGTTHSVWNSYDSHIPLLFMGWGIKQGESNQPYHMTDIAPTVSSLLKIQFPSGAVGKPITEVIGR
Under “oxyanion analog dissociation constant”, `A145G` is recorded as 3.81 µM.
`P477G`: “oxyanion analog dissociation constant” 785 nM.
`Y92V`: “oxyanion analog dissociation constant” 2.63 µM.
`Y92G` — result for “oxyanion analog dissociation constant”: 9.39 µM.
For `S412G`, “oxyanion analog dissociation constant” read 895 nM.
Under “oxyanion analog dissociation constant”, `Q125G` is recorded as 613 nM.
`V99A` — result for “oxyanion analog dissociation constant”: 694 nM.
`W217V` — result for “oxyanion analog dissociation constant”: 847 nM.

Study 3
Target: CCND3, cyclin fold, Cln2 fusion (human)
Method: yeast growth competition, sequencing
Medium: yeast
Notes: weak parent motif
Relative to: not given
Reading: higher = stronger binding
Starting sequence: viral docking peptide; KGVKRKLFAEDSS; partner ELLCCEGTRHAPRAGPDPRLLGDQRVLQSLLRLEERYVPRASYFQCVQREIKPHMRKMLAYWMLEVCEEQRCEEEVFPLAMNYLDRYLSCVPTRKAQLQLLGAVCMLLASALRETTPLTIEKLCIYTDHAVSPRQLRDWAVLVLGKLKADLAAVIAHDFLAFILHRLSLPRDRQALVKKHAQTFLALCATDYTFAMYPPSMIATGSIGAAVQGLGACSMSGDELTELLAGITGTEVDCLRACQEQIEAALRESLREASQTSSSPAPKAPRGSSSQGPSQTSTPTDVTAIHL
Under “normalised enrichment score”, `K4R` is recorded as 0.545.
`G2T` — result for “normalised enrichment score”: 0.122.
`F8W`: “normalised enrichment score” 0.0831.
For `L7H`, “normalised enrichment score” read 0.16.
`A9I`: “normalised enrichment score” 0.273.
`S12V`: “normalised enrichment score” -0.00963.
`G2P`: “normalised enrichment score” 0.164.
`L7K` — result for “normalised enrichment score”: 0.299.

Other studies, line by line
`CCOC(=O)Nc1ccc(NCc2ccc(F)cc2)cc1N` gave a viability of 82.1% (HaCaT; 100 µM, 36 h).
`O=C(NCc1ncc(C(F)(F)F)cc1Cl)c1ccc2c(c1)C1(CCS(=O)(=O)CC1)[C@H](C1CC1)N2S(=O)(=O)c1ccc(F)cc1` gave an inhibition of 29.1% (Mu-type opioid receptor (OPRM1, Homo sapiens, UniProt P35372); ligand displacement; 10 µM).

Repeated from above (other studies, line by line):
`CCOC(=O)Nc1ccc(NCc2ccc(F)cc2)cc1N` gave a viability of 82.1% (HaCaT; 100 µM, 36 h).
`O=C(NCc1ncc(C(F)(F)F)cc1Cl)c1ccc2c(c1)C1(CCS(=O)(=O)CC1)[C@H](C1CC1)N2S(=O)(=O)c1ccc(F)cc1` gave an inhibition of 29.1% (Mu-type opioid receptor (OPRM1, Homo sapiens, UniProt P35372); ligand displacement; 10 µM).
